Assay results from different studies.
Lines come from different studies, so protocols differ. Several values in a cell are separate wells, animals, samples, runs or records.

With `CC(=O)C[C@@H](c1ccccc1)c1c(O)c2ccccc2oc1=O` the AUC was 19.2 µg·h/mL (human; dose not given, alone).
`N.N.O=C([O-])C1(C(=O)[O-])CCC1.[Pt+2]` — result for “AUC to infinity”: 20 µg·h/mL (measured: non-protein-bound platinum; human, plasma ultrafiltrate; target AUC 2, from 0, median, Bayesian estimate).
For `O=c1ccc2ncc(=O)n3c2n1C[C@H]3CN1CCC(NCc2cc3c(cn2)OCCC3)CC1`, the AUC decrease was 52% and ~50% (healthy human volunteers, plasma; oral, dose not given, added: rifampicin co-administration; baseline: compound alone).
With `Cc1ncc2n1-c1ccc(Cl)cc1C(c1ccccc1F)=NC2` the AUC increase was under 50% (human, plasma; oral, dose not given, extrapolated DDI estimate, added: rimegepant 75 mg daily).
For `Cc1nnc2n1-c1ccc(Cl)cc1C(c1ccccc1)=NC2`, the AUC change was -7.57% (human female; dose not given, day 22; baseline: day 0).
`CCOC(=O)C1=C(CN2CCOCC2)NC(c2nccs2)=NC1c1ccc(F)cc1Br` (stereo not drawn): AUC “no effect” (healthy human; oral, dose not given, high-fat meal vs fasted).
`Cn1ncc(-c2nc(N[C@H]3CC[C@H](N)CC3)ncc2Cl)c1CC1CC1` has an AUC of 0.125 µg·h/mL (human patients, plasma; oral, 3 mg, day 1).
`CCN(CC)C(=O)[C@@H]1C=C2c3cccc4[nH]cc(c34)C[C@H]2N(C)C1` gave an AUC extrapolated of 0.674% and 4.3% and 2.97% and 2.17% and 5.23% and 1.42% and 0.989% and 0.966% (human; oral, 100 µg).
For `O=C(O)C(F)(F)C(F)(F)C(F)(F)C(F)(F)C(F)(F)C(F)(F)C(F)(F)F`, the AUC was 4470 µg·h/mL (two-compartment model; human, plasma; oral, 50 mg single dose, geometric mean).
